{"data": "Experimental data collected from several papers", "organism": "influenza A virus", "note": "Protocols differ between the studies behind these lines. ± gives the spread as reported."}
{"Compound": "NC12CC3CC(CC(C3)C1)C2", "test": "cytopathic effect, MTS", "system": "MDCK, H1N1", "measurement": "EC50", "value": "3200 nM"}
{"Compound": "O=C(O)[C@H]1C2C=CC(CC2)[C@@H]1Nc1nc(-c2c[nH]c3ncc(F)cc23)nc2sccc12 (stereo partly shown)", "test": "viral replication", "system": "A549, H1N1 PR8-GLuc", "measurement": "EC50", "value": "6 nM"}
{"Compound": "C[Si](C)(C)c1ccc(CNC23CC4CC(CC(O)(C4)C2)C3)cc1", "system": "H1N1 and H3N2 clinical isolates", "measurement": "EC50", "value": "600 to 1200 nM"}
{"Compound": "CC(N)C12CC3CC(CC(C3)C1)C2 (stereo not shown)", "test": "viral replication, MTS viability", "system": "MDCK, H1N1", "measurement": "EC50", "value": "9200 ± 320 nM"}
{"Compound": "O=C1Nc2ccccc2/C1=N/NC(=S)N/N=C1\\C(=O)Nc2ccccc21", "test": "cytopathic effect, visual CPE score", "system": "MDCK, H1N1", "measurement": "EC50", "value": "72000 ± 27000 nM"}
{"Compound": "Nc1nc(P(=O)(O)O)nc(N)c1Cl", "test": "viral replication", "system": "H1N1, H3N2", "measurement": "EC50", "value": "28000 to 50000 nM"}
{"Compound": "O=C(O)[C@H]1C2CCC(CC2)[C@@H]1Nc1nc(-c2c[nH]c3ncc(F)cc23)ncc1F", "test": "viral replication", "system": "A549, H1N1 PR8-GLuc", "measurement": "EC90", "value": "27 ± 10 nM"}
{"Compound": "NC12CC3CC(CC(C3)C1)C2", "test": "viral replication, MTS viability", "system": "MDCK, H1N1", "measurement": "EC50", "value": "25400 ± 540 nM"}
{"Compound": "NC(=O)c1ncn([C@@H]2O[C@H](CO)[C@@H](O)[C@H]2O)n1", "test": "cytopathic effect, visual CPE score", "system": "MDCK, H1N1", "measurement": "EC50", "value": "2500 ± 500 nM"}
{"Compound": "NC(=O)c1ncn([C@@H]2O[C@H](CO)[C@@H](O)[C@H]2O)n1", "test": "viral replication", "system": "A/Hanfang/359/95 (H3N2)", "measurement": "IC50", "value": "970 nM"}
